# Experimental data gathered from unrelated publications.
# Numbered parts are unrelated; each lists some results of a single study.

# Study 1
# Target: Ras GTPase-activating protein-binding protein 1, C-terminal RGG region (G3BP1, Homo sapiens, UniProt Q13283)
# UniProt Q13283, sequence (whole entry, looked up): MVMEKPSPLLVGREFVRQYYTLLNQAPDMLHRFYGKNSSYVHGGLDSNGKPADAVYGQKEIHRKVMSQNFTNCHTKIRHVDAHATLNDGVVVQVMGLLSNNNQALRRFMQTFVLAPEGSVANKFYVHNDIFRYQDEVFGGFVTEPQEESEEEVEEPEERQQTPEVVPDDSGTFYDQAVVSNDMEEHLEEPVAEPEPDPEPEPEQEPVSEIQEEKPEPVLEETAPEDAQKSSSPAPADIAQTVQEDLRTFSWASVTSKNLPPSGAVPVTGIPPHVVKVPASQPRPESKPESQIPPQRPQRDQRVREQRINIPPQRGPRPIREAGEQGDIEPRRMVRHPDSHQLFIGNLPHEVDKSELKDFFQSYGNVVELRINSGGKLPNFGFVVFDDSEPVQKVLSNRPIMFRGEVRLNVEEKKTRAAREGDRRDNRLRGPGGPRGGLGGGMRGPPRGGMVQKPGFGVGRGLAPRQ
# Method: RNA Bind-n-Seq
# Molecule type: RNA
# Matrix: in vitro
# Tested at: 1 µM
# Setting: whole 134-nt RNA, ends assumed
# Together with: 150 mM KCl
# Relative to: input library
# Direction: higher = stronger binding
Sequence,log2 enrichment
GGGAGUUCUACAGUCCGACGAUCACCAUGCAGGUGGGCAUCUUUGGGAAGUGGGGCAAGGGGGGGAUAGGGAGGGGGGUAACACUUUGGGAAAAAGUGGUCCCAGGUCGUUUCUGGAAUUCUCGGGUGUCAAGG,-1.16
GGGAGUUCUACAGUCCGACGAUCGUCCUGUGCUACACAUCGUAUGUACCGAAUCGGGUUUUUUGGUUUUUUGGUUUUUUGGGAAAGUAUUAUGUUACGCCGUUCGGAUCUGCAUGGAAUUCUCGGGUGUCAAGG,-1.69
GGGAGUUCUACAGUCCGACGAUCUCCUGUGCUACACAUCGUAUGUACCGAAUCAAAUUUUUAAACCCCCCCAAACCCCCAAAAAAGUAUUAUGUUACGCCGUUCGGAUCUGCAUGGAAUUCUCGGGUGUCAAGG,-0.567
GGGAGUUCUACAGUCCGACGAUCCAAGUCCUGUGCUACACAUCGUAUGUACCGAAUCGGAAAAAAAGGAGGAAAAAGGAAAGUAUUAUGUUACGCCGUUCGGAUCUGCACUUCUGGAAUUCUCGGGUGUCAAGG,-1.8
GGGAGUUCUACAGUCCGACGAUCCCUCAAGUCCUGUGCUACACAUCGUAUGUACCGAAUCGGAGGAAAAAGGUGGAAAGUAUUAUGUUACGCCGUUCGGAUCUGCACUUCCAGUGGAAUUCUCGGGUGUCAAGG,-0.689
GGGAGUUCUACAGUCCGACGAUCGGCGGAGCAGCUGAUGGAGGAGUGGAACGAAGACCUAGACGGCAUGGAGGGUUUCGUGCUGGAGGGCAAGAAGUUUGCGCGGCUGCCGGAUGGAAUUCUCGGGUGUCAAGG,-1.38
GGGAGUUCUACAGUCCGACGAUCACCAUGCAGGUGGGCAUCUUUGGGAAGUGGGGCAAGGGGGGGAUAGGAAGGGGGGUAACACUUUGGGAACAGGUGGUCCCAGGUCGUUUCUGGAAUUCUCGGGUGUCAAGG,2.08
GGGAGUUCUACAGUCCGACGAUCCAUCCUUUGGGCCCCUCAAGGCCUUCAACCUGGUCAAGGACAGUGCCACGGGGCUCUCCAAGGGCUACGCCUUCUGUGAGUACGUGGACAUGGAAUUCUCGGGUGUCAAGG,-1.93
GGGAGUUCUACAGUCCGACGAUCUGGGAGGUGGAUUUUGUUUAUUUUUUUAGCUCAUUUCCAGGGGAGGGAAUUUUUUUUUAAUAUGUGUCAUGAAUAAAGUUGUUUUUGAAAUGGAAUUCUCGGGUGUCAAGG,2.91
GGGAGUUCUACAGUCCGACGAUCGUCCUGUGCUACACAUCGUAUGUACCGAAUCGGGCCCCCGGCCCCCGGGGCCCCCGGGGAAAGUAUUAUGUUACGCCGUUCGGAUCUGCAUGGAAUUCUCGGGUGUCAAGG,-1.92

# Study 2
# Target: Interferon regulatory factor 5, full length, phosphomimetic (IRF5, Homo sapiens, UniProt Q13568-2, residues 1-514, K96S/S451D/S453D/S456D/S462D)
# Method: protein-binding microarray
# Molecule type: double-stranded DNA, one strand shown
# Matrix: in vitro
# Tested at: 250 nM
# Setting: 60-bp whole probe
# Together with: salmon DNA 0.4 mg/ml
# Relative to: random background probes
# Direction: higher = stronger binding
# Constant ends, left off below: GCCTAGCAC … GTCTTGATTCGCTTGACGCTGCTG
Sequence,log fluorescence [z-score]
TTAGGTCTCCTTATGCTTTAGTGCTAG,-0.321
GACGGACTCGACACTGGGGACGTGCTA,-0.346
GGCGGACTGGGGTATCGGGACGTGCTA,-0.233
TTAGGTAACGGGACTGGGTTAGTGCTA,-0.37
TTAGGACTGGGACTGAGTTAGTGCTAG,-0.731
TTAGGACTGGAGACTGGGTTAGTGCTA,-0.591
CCAACACTCGGTTTCCAAATGTGCTAG,0.33
TCTATCTGCAGACTCTCACAGTGCTAG,0.9
TCATTTTTTTTTTTCTGACTGTGCTAG,1.12
GACGGTATCGGGTTTCGGGACGTGCTA,4.31
TTAGGTATCGACACTAGGTTAGTGCTA,2.65
TAAGGTCTCGGTTTCGGTTAGTGCTAG,8.54
GACGGTCTCGGTCTCGGTACGTGCTAG,0.378
GGTGCTGTTTACATAGTTCTGTGCTAG,-0.528
TCAACTCTTCCTTTACTACTGTGCTAG,0.629
GACGATTTCAGTATCGAAACGTGCTAG,6.55
GACGGTATCGGGACCGGGGACGTGCTA,1.19
ACCTATGTGTACCACTAGACGTGCTAG,-0.417
GACGTTATCGGGTTTCGAGACGTGCTA,3.61
CTCCAACAAGGCTATCCCTCGTGCTAG,-0.423
TTAGGTCTCTGTATCGGTTAGTGCTAG,4.34
GCTTCCTCACCTGATGCCTCGTGCTAG,-0.086
ACCCGAGTCCCTATCTCCTCGTGCTAG,-0.382
TTAGGACCGGACTATCGGTTAGTGCTA,6.17
GACGGTATCGACTCTGGGGACGTGCTA,1.82

# Study 3
# Target: Sal-like protein 4, full length isoform A (SALL4, Homo sapiens, UniProt Q9UJQ4, residues 1-1053)
# UniProt Q9UJQ4, sequence (whole entry, looked up): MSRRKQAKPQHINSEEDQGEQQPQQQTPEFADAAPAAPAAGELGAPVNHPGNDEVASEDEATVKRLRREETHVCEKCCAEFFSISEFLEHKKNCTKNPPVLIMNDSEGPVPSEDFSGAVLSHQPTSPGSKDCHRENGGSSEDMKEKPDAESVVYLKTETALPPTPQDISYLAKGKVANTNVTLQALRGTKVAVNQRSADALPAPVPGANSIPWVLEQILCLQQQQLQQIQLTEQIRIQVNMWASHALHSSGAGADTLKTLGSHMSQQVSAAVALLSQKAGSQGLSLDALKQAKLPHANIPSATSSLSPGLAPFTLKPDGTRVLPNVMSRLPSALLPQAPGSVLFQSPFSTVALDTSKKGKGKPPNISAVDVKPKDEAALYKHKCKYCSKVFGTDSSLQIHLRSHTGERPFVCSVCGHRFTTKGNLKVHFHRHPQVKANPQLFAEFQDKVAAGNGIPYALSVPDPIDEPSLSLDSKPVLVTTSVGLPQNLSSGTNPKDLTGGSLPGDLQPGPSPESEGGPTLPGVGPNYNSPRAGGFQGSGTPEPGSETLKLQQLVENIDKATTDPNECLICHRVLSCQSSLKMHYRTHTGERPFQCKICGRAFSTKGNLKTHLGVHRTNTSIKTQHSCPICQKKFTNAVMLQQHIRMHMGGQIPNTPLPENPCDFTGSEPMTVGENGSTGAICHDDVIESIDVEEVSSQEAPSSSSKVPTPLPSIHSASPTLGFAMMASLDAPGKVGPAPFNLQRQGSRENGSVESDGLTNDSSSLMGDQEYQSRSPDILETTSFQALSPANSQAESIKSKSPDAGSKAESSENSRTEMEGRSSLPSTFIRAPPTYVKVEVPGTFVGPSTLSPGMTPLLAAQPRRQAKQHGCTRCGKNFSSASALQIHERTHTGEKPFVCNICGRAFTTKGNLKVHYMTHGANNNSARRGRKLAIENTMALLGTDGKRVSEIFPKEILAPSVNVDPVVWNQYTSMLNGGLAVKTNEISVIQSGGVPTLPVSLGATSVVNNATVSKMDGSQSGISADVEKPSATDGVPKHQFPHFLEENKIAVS
# Method: universal PBM
# Molecule type: double-stranded DNA, one strand shown
# Matrix: in vitro
# Tested at: 600 nM
# Setting: 8-mer, flanks averaged, mean of replicates
# Direction: higher = stronger binding
Sequence,E-score
GAGCTCTA,-0.133
GCATATAC,0.161
ACTTTCAA,0.198
CTTGGTGC,-0.0265
CCCGCATC,-0.236
AGGAAGCG,-0.128
GCGGTCAA,-0.106
GCTACAGA,-0.0202
TAAAAGCA,0.136
TAGCTAAA,0.103
GCTTATGA,0.239
AAAGCGGC,-0.292
CCGGATAC,-0.263
ACTCCTCT,-0.0737
CTTATCAC,0.014
CCAGCGAA,-0.25

# Study 4
# Target: UBE2Z UBC core domain (UniProt Q9H832)
# Method: yeast two-hybrid
# Matrix: yeast
# Setting: mostly zero background
# Relative to: not given
# Direction: higher = stronger interaction
# B1: RNF10 RING domain (UniProt Q8N5U6); chain VRICSHEVPSCPICLYPPTAAKITRCGHIFCWACILHYLSLSEKTWSKCPICYSSVHKKDLKS
# B2: CBLL1 RING domain (UniProt Q75N03); chain GEKDDTPVHFCDKCGLPIKIYGRMIPCKHVFCYDCAILHEKKGDKMCPGCSDPVQRIEQCT
# B3: TRIM74 RING domain (UniProt Q86UV6); chain SLLELEDWLQCPICLEVFKESLMLQCGHSYCKGCLVSLSYHLDTKVRCPMCWQVVDGSSSLP
# B4: TRIM34 RING domain (UniProt Q9BYJ4); chain ILLNVQEEVTCPICLELLTEPLSLDCGHSLCRACITVSNKEAVTSMGGKSSCPVCGISYSFEHLQA
# B5: PJA2 RING domain (UniProt O43164); chain DHTAIGQEQCCPICCSEYIKDDIATELPCHHFFHKPCVSIWLQKSGTCPVCRRHFPPAVIEA
# B6: TRIM47 RING domain (UniProt Q96LD4); chain MDGSGPFSCPICLEPLREPVTLPCGHNFCLACLGALWPHRGASGAGGPGGAARCPLCQEPFPDGLQLR
# B7: TRIM32 RING domain (UniProt Q13049); chain NLDALREVLECPICMESFTEEQLRPKLLHCGHTICRQCLEKLLASSINGVRCPFCSKITRITSLTQ
# B8: TRIM68 RING domain (UniProt Q6AZZ1); chain LVEAIVEEVACPICMTFLREPMSIDCGHSFCHSCLSGLWEIPGESQNWGYTCPLCRAPVQPRNLRP
# Target sequence (chain): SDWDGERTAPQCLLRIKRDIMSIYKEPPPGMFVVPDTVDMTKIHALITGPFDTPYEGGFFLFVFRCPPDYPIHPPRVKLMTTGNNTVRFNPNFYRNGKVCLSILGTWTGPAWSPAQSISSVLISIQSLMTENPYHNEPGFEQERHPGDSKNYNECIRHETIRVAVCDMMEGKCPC
Sequence,lacZ reporter activity
B1 (RNF10 RING domain),0
B2 (CBLL1 RING domain),0
B3 (TRIM74 RING domain),0
B4 (TRIM34 RING domain),0
B5 (PJA2 RING domain),5420
FLSKVEETFQCICCQELVFRPITTVCQHNVCKDCLDRSFRAQVFSCPACRYDLGRSYAMQ (UHRF1 RING domain (UniProt Q96T88)),0
B6 (TRIM47 RING domain),0
MEEMEEELKCPVCGSFYREPIILPCSHNLCQACARNILVQTPESESPQSHRAAGSGVSDY (TRIM9 RING domain (UniProt Q9C026)),0
B7 (TRIM32 RING domain),0
B8 (TRIM68 RING domain),0

# A few entries again (study 4):
Sequence,lacZ reporter activity
B4 (TRIM34 RING domain),0
B5 (PJA2 RING domain),5420
FLSKVEETFQCICCQELVFRPITTVCQHNVCKDCLDRSFRAQVFSCPACRYDLGRSYAMQ (UHRF1 RING domain (UniProt Q96T88)),0
